Measurements from different studies.
Lines come from different studies, so protocols differ. Several values in a cell are separate wells, animals, samples, runs or records. ± marks the error that the study gave.
CASP7: Caspase-7 (CASP7, Homo sapiens, UniProt P55210)
UniProt P55210, sequence (whole entry, looked up): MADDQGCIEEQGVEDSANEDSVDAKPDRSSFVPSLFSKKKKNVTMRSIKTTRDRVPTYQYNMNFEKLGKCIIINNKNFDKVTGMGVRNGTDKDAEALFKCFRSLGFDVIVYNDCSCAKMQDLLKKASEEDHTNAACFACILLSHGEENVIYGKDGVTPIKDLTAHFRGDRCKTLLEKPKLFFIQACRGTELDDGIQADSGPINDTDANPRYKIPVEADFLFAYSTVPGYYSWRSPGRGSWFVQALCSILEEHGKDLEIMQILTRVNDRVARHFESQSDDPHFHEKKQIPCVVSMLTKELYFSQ
T1: G-quadruplex DNA (Homo sapiens); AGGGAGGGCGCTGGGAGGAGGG
UniProt P00921, sequence (whole entry, looked up): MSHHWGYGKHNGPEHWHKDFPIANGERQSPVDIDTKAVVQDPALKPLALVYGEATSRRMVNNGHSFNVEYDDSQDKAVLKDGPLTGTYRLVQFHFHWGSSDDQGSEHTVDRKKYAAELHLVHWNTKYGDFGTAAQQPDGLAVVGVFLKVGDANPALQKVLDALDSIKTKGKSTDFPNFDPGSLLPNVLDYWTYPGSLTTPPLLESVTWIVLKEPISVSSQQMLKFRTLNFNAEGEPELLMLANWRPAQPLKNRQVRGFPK
UniProt P35821, sequence (whole entry, looked up): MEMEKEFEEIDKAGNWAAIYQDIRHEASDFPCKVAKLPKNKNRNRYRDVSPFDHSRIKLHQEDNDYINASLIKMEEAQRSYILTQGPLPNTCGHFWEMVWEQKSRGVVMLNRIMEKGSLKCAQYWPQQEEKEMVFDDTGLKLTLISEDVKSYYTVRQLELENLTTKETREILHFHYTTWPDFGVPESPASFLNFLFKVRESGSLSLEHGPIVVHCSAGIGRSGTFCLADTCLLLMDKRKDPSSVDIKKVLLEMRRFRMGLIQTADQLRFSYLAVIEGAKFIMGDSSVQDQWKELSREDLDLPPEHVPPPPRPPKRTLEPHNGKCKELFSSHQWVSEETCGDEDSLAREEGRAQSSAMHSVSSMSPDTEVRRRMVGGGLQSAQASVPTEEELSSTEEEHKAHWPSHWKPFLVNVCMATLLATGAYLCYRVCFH
UniProt Q16539, sequence (whole entry, unmodified, looked up): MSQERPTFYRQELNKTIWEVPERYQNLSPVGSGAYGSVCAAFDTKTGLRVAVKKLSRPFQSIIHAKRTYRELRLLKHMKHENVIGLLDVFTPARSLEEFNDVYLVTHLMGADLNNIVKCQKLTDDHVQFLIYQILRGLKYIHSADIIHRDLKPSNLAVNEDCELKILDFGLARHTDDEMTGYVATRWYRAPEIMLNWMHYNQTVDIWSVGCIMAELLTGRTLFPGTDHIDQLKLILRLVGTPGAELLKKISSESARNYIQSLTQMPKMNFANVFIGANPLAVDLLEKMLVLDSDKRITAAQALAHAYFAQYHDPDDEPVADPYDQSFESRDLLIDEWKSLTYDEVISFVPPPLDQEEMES
UniProt P20782, sequence (whole entry, unmodified, looked up): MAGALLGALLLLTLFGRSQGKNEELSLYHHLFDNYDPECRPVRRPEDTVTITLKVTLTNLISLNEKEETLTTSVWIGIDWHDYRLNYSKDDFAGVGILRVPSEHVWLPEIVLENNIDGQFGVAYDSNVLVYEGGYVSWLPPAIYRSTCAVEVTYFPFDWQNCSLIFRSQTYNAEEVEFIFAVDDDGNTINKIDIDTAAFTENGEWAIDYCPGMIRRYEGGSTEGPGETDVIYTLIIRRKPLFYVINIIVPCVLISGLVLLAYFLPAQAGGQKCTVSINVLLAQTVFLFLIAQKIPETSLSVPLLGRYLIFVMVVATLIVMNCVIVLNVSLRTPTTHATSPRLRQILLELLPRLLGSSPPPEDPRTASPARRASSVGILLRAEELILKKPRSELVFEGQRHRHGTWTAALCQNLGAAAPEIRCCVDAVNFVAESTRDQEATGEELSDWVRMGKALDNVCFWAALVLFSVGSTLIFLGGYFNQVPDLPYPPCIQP
UniProt P04756, sequence (whole entry, unmodified, looked up): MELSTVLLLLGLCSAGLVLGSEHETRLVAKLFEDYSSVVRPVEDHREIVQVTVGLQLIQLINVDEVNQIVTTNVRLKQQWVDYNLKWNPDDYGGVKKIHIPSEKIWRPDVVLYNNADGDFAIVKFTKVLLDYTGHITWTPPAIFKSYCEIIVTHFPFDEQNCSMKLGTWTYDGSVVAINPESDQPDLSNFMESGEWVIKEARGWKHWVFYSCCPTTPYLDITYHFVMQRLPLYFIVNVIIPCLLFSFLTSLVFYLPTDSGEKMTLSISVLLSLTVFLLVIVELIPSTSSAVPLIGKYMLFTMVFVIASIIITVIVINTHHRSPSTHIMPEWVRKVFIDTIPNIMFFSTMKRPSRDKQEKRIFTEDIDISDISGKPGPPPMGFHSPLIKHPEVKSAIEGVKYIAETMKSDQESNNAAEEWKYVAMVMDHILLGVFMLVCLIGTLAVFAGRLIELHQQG
UniProt P02716, sequence (whole entry, unmodified, looked up): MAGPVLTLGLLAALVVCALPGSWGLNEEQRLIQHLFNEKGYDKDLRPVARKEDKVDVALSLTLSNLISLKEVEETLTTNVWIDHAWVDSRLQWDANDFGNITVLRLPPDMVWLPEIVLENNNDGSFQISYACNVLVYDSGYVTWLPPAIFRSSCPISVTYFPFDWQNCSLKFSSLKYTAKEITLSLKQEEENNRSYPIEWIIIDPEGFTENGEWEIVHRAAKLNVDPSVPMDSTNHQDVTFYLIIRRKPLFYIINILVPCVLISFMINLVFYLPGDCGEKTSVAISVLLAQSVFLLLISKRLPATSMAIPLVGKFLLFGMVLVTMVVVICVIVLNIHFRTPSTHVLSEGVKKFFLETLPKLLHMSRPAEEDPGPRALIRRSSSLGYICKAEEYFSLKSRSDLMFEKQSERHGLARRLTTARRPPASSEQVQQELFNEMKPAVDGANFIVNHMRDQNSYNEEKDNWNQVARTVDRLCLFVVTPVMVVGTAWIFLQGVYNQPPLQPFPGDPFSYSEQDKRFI
UniProt P34972, sequence (whole entry, looked up): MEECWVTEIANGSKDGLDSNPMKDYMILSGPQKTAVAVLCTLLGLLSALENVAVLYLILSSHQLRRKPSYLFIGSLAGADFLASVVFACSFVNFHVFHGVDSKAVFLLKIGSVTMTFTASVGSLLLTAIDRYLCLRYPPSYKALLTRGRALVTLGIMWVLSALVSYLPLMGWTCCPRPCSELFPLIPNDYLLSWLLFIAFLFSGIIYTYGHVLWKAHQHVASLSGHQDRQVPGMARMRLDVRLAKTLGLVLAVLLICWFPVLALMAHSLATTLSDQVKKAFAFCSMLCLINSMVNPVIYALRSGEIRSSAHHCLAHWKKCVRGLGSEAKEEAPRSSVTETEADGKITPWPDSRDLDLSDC
UniProt Q03431, sequence (whole entry, looked up): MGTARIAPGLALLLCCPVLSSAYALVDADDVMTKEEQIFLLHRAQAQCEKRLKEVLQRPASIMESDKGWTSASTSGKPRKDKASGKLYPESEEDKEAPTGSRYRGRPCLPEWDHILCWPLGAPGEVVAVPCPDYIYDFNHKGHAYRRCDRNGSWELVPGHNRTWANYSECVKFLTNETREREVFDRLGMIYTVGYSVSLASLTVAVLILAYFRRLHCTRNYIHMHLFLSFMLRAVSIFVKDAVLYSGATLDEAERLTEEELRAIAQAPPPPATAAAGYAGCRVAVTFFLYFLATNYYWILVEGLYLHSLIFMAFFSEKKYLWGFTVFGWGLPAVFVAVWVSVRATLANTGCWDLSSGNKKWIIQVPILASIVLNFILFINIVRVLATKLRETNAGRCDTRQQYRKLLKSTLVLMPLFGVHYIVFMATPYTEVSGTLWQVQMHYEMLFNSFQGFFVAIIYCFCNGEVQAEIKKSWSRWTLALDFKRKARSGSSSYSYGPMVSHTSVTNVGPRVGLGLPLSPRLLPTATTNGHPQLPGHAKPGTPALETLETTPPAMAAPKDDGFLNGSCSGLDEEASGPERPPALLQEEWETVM
UniProt P19491, sequence (whole entry, looked up): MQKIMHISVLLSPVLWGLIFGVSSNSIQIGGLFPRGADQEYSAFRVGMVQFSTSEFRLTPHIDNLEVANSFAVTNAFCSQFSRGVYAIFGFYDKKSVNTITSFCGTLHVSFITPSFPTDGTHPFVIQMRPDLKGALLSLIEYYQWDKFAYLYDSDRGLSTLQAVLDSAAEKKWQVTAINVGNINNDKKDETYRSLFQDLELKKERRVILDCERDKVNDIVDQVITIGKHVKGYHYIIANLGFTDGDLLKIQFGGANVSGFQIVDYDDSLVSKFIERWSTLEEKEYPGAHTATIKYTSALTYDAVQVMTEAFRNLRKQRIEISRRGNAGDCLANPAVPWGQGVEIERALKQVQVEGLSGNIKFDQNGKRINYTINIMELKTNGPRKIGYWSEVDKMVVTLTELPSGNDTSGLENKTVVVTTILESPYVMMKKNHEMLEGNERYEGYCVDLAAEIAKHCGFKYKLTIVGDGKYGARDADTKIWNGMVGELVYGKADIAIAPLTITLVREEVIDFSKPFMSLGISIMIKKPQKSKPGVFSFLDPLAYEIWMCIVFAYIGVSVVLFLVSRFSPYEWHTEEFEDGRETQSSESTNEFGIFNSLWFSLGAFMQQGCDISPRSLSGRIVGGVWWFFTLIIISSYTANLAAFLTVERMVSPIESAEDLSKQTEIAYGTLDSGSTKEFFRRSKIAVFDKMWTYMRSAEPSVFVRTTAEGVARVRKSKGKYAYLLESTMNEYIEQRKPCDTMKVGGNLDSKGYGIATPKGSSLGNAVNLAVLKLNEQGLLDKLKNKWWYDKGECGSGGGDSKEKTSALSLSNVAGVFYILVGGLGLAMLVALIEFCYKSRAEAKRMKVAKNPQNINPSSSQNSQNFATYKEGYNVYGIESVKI
UniProt P09936, sequence (whole entry, looked up): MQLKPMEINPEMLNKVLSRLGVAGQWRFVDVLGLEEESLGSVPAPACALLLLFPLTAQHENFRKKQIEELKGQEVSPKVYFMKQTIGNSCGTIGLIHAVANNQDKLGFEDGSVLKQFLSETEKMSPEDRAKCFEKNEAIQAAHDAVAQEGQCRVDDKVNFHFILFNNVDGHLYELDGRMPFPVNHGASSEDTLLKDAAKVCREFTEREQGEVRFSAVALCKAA

For `CN(C)c1ccc(C2=C/C(=C/C=C/c3sc4ccccc4[n+]3C)c3ccccc3O2)cc1`, binding read “binds” (T1, G-quadruplex DNA (Homo sapiens); fluorescence turn-on).
With `CC(=O)N[C@@H](CO)C(=O)N[C@@H](Cc1ccccc1)C(=O)N[C@@H](C)C(=O)N[C@@H](CC(=O)O)C(=O)COC(=O)c1c(C)cccc1C` the kinact/KI was 48700 M⁻¹ s⁻¹ (CASP7; enzyme activity, inhibitor).
`CCCCCCCCCCCCCCCC(=O)NCCCC[C@H](NC(=O)[C@H](CCC(=O)O)NC(=O)[C@H](Cc1ccc(O)cc1)NC(=O)[C@H](CCC(=O)O)NC(=O)COCC(=O)NCCCOCCOCCOCCCNC(=O)[C@H](Cc1c[nH]c2ccccc12)NC(=O)[C@H](CCCCN)NC(=O)[C@H](C)NC(=O)[C@H](CCCCNC(=N)N)NC(=O)[C@H](CCC(N)=O)NC(=O)[C@H](Cc1c[nH]cn1)NC(=O)[C@H](CCSC)NC(=O)[C@H](CC(C)C)NC(=O)[C@H](CCC(N)=O)NC(=O)[C@@H](NC(=O)[C@H](CCC(=O)O)NC(=O)C(C)(C)NC(=O)[C@@H](NC(=O)C(C)(C)N)C(C)C)[C@@H](C)CC)C(=O)N[C@@H](CCC(=O)O)C(=O)N[C@@H](Cc1ccc(O)cc1)C(=O)N[C@@H](CCC(=O)O)C(N)=O`: “cAMP luminescence AUC” 20 a.u. (PTH1R (Homo sapiens, UniProt Q03431); agonist; Saos-2 with cAMP reporter; 100 pM, 30 min, ligand-on phase; higher = more cAMP).
For `CCCCCC=CC=C1C(=O)C=CC1CC=CCCCC(=O)O` (centres unmarked), “isoTOP-ABPP competition ratio” read 8.6 (CCT8 (Homo sapiens, UniProt P50990); competitive isoTOP-ABPP; Ramos soluble proteome; 100 µM, 60 min, added: iodoacetamide probe; relative to: DMSO over compound-treated, higher = stronger cysteine blockade).
The fraction bound of `COC(=O)[C@@]1(Cc2ccccc2)C=C(C(=O)OC(C)(C)C)C(=O)CC1` is reported as 0.232 (MAPK14 (Homo sapiens, UniProt Q16539, C119V); peptide binding, fluorescence polarization; 31.25 µM).
`CCOC(=O)C(CC)(CCCSCCCCCCNc1ccc([N+](=O)[O-])c2nonc12)NC(=O)c1ccc(C2CC2)c(Cc2ccc(F)cc2)n1` (centres unmarked) has a Ki ratio of 19 (CNR2 (Homo sapiens, UniProt P34972); radioligand binding; relative to: CB1 over CB2 (human)).
With `CN(C)c1ccc2c(c1)C(=O)N(CCc1ccc(S(N)(=O)=O)cc1)C2=O` the fluorescence turn-on was 12.2 fold (CA2 (Bos taurus, UniProt P00921); binding; 2 µM, pH 7.2; relative to: without protein).
With `Cn1c(=O)n(C2CCC(=O)NC2=O)c2ccc(C3CCN(CC(=O)Nc4cccc(CS(=O)(=O)N5CC[C@H](Nc6cccc(-c7sc(C(=O)O)c(OCC(=O)O)c7Cl)c6)CC5(C)C)c4)CC3)cc21` (some centres unmarked) the remaining protein was 11.2% and 11.8% (Tyrosine-protein phosphatase non-receptor type 1 (Mus musculus, UniProt P35821); degrader, Western blot; B16-F10; 0.1 µM).
`C[N+]1(C)CCSC1` gave an affinity ratio of 2.5 (Chrnd/Chrna1/Chrne (Mus musculus, UniProt P02716+P04756+P20782, G173K/S470W); ligand binding, agonist, single-channel kinetics; chain K; relative to: wild type over mutant).
With `CC(=O)N[C@@H](CCC(C)C)C(=O)N[C@@H](CCC(=O)O)C(=O)N[C@@H](C)C(=O)N[C@@H](CC(=O)O)C(=O)COC(=O)c1c(C)cccc1C` the kinact/KI was 9600 M⁻¹ s⁻¹ (CASP7; enzyme activity, inhibitor).
With `COC(=O)[C@@]1(C)C=C(C(=O)Nc2cccc(C(=O)Nc3ccc(Nc4nccc(-c5cccnc5)n4)c(C)c3)c2)C(=O)CC1` the remaining activity was 0.625 (MAPK1 (Homo sapiens, UniProt P28482); kinase activity, inhibitor; 44.44 µM, unit not given; relative to: no inhibitor).
`O=C(O)Cc1cc2c(cc1C(=O)c1ccccc1Cl)OCO2` has a current amplitude of 175 ± 18 pA (Gria2 (Rattus norvegicus, UniProt P19491); glutamate-evoked current, whole-cell patch clamp; HEK-293T; concentration not given, pH 7.4, holding potential -60 mV, added: 10 mM glutamate).
With `N#CN1CC[C@H](C(=O)Nc2nc3c(s2)CN(C(=O)Cn2cc(CNC(=O)CCCC[C@@H]4SC[C@@H]5NC(=O)N[C@@H]54)nn2)CC3)C1` the iBAQ abundance was 2.21e+09 (UCHL1 (Homo sapiens, UniProt P09936); probe binding, affinity probe, neutravidin pull-down LC-MS/MS; HEK293T, cell lysate; 5 µM, 1 h, mean of three replicates, unit not given; higher = more pulled down).
`CNc1ccc(-c2n[nH]c3c2CCN(C(=O)c2ccccc2)C3)cc1` — result for “number of kinases hit”: 0 (human kinase panel; binding, KINOMEscan; 10000 nM, %Ctrl below 1).

Repeated from above:
With `Cn1c(=O)n(C2CCC(=O)NC2=O)c2ccc(C3CCN(CC(=O)Nc4cccc(CS(=O)(=O)N5CC[C@H](Nc6cccc(-c7sc(C(=O)O)c(OCC(=O)O)c7Cl)c6)CC5(C)C)c4)CC3)cc21` (some centres unmarked) the remaining protein was 11.2% and 11.8% (Tyrosine-protein phosphatase non-receptor type 1 (Mus musculus, UniProt P35821); degrader, Western blot; B16-F10; 0.1 µM).
`C[N+]1(C)CCSC1` gave an affinity ratio of 2.5 (Chrnd/Chrna1/Chrne (Mus musculus, UniProt P02716+P04756+P20782, G173K/S470W); ligand binding, agonist, single-channel kinetics; chain K; relative to: wild type over mutant).
